Measurements gathered from unrelated publications.
Each line is one published result; not all experiments were run side by side. Several values in a cell are separate wells, animals, samples, runs or records. ± marks the error that the study gave.
E3 ubiquitin-protein ligase NEDD4: E3 ubiquitin-protein ligase NEDD4 (Homo sapiens, UniProt P46934)
Grm2: Metabotropic glutamate receptor 2 (Grm2, Rattus norvegicus, UniProt P31421)
RPA1 N-terminal domain: Replication protein A 70 kDa DNA-binding subunit, N-terminal domain (RPA1, Homo sapiens, UniProt P27694)
Lysophospholipase-like protein 1: Lysophospholipase-like protein 1 (Mus musculus, UniProt Q3UFF7)
MAPK8: Mitogen-activated protein kinase 8 (MAPK8, Homo sapiens, UniProt P45983)
GRM4: Metabotropic glutamate receptor 4 (GRM4, Homo sapiens, UniProt Q14833)

The chains behind the UniProt entries cited, without tags or fusion partners. Residues count along the entry.
UniProt P46934, whole entry, looked up: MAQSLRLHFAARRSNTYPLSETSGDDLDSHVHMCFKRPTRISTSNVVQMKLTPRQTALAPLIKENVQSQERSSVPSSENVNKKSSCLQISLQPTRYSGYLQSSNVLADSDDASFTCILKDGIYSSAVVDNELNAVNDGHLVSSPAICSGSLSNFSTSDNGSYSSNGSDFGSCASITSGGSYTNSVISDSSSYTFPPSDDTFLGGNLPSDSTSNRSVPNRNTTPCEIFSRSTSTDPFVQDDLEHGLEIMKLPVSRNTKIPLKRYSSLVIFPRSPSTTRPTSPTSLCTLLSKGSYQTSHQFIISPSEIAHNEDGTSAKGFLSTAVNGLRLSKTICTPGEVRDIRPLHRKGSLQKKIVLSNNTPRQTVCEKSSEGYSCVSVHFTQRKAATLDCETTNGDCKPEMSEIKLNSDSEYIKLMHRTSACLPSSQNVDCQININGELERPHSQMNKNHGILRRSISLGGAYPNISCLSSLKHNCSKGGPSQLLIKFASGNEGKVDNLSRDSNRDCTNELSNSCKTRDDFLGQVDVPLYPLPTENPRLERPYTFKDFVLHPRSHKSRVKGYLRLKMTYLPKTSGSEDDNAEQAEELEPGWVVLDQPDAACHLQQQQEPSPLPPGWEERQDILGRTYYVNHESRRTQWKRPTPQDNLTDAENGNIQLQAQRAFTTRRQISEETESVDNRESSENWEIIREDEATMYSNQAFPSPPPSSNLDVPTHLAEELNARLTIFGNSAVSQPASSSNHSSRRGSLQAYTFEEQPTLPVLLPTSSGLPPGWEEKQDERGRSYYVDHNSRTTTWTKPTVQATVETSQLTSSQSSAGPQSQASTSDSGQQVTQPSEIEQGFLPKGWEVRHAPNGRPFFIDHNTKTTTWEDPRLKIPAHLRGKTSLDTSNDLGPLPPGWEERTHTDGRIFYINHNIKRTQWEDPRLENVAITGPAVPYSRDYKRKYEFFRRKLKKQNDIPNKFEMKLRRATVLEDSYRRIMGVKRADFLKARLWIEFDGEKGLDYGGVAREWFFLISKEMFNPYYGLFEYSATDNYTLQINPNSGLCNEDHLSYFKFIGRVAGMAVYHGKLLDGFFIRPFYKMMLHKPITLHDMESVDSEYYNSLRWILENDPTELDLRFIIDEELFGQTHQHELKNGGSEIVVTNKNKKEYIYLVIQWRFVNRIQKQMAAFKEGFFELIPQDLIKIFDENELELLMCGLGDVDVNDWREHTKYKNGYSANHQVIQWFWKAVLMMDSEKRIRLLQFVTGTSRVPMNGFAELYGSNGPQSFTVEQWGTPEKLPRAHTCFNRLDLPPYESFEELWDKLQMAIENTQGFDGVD
UniProt P31421, 19-872 limits assumed: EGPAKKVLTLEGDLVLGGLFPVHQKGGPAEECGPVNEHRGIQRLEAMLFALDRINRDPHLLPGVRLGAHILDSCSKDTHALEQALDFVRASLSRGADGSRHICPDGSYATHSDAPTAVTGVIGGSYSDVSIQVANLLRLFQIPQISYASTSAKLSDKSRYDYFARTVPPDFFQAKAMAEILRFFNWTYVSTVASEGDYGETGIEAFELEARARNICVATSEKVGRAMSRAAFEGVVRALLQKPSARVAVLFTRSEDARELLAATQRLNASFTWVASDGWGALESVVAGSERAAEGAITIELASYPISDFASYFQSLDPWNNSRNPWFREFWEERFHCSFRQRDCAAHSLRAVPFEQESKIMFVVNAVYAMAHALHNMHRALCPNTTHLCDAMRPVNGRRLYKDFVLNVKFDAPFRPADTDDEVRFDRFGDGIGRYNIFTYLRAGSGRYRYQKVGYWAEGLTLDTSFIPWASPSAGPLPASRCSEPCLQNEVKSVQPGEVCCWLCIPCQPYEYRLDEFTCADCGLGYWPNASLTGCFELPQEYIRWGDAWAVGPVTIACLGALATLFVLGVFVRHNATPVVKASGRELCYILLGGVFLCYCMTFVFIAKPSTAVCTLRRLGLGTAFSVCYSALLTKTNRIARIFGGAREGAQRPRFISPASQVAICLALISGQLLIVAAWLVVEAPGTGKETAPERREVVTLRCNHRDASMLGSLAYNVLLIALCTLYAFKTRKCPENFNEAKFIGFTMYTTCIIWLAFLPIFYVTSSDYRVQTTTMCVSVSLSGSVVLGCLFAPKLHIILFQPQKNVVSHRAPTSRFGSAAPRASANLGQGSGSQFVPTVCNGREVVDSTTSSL
UniProt Q3UFF7, whole entry: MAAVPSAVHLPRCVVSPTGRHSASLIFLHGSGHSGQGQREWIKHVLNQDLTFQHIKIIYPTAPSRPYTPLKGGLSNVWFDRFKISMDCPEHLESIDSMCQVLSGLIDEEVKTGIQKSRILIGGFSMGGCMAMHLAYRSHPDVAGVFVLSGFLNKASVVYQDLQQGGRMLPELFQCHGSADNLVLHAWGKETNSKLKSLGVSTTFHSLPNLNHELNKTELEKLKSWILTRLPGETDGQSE
UniProt P42260, 32-908 limits assumed: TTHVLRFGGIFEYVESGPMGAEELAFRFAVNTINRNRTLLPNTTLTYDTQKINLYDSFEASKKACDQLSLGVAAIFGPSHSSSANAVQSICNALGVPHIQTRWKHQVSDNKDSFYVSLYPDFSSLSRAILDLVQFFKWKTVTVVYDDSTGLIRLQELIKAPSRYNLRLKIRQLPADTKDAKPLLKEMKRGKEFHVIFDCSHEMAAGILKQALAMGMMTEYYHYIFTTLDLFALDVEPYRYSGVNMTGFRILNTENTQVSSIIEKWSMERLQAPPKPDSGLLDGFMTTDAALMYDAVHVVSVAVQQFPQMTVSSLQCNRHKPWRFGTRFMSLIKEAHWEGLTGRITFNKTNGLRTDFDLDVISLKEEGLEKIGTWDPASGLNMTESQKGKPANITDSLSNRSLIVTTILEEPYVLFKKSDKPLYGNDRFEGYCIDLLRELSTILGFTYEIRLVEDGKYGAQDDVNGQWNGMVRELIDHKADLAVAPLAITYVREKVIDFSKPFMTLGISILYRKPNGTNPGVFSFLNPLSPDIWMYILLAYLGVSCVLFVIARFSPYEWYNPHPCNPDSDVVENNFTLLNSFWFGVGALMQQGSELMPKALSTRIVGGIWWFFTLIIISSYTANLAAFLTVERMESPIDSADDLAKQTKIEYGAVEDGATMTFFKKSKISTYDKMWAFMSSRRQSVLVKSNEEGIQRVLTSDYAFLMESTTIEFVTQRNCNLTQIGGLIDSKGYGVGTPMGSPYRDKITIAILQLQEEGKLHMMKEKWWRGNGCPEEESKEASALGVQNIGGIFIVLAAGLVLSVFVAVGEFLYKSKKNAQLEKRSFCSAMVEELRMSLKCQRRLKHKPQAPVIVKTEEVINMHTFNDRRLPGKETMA
UniProt Q99797, 36-713 limits assumed: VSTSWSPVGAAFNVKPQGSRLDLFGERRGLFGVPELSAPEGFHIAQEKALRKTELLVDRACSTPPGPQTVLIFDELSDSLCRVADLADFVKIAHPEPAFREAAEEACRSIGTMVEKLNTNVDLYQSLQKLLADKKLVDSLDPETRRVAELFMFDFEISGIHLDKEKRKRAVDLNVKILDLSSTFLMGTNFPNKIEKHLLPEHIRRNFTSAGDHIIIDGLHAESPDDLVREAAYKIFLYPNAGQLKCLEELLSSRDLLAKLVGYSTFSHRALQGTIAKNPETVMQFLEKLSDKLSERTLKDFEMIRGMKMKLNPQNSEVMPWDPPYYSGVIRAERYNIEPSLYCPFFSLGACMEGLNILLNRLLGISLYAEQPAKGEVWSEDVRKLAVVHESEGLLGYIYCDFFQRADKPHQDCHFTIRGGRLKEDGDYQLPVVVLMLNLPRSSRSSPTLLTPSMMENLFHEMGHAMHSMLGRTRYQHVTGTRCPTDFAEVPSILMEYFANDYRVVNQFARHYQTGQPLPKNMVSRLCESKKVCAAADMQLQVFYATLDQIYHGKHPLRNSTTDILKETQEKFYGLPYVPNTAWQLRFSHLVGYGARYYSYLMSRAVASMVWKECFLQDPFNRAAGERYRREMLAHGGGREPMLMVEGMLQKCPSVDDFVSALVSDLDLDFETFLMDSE
UniProt Q9NQW8, whole entry: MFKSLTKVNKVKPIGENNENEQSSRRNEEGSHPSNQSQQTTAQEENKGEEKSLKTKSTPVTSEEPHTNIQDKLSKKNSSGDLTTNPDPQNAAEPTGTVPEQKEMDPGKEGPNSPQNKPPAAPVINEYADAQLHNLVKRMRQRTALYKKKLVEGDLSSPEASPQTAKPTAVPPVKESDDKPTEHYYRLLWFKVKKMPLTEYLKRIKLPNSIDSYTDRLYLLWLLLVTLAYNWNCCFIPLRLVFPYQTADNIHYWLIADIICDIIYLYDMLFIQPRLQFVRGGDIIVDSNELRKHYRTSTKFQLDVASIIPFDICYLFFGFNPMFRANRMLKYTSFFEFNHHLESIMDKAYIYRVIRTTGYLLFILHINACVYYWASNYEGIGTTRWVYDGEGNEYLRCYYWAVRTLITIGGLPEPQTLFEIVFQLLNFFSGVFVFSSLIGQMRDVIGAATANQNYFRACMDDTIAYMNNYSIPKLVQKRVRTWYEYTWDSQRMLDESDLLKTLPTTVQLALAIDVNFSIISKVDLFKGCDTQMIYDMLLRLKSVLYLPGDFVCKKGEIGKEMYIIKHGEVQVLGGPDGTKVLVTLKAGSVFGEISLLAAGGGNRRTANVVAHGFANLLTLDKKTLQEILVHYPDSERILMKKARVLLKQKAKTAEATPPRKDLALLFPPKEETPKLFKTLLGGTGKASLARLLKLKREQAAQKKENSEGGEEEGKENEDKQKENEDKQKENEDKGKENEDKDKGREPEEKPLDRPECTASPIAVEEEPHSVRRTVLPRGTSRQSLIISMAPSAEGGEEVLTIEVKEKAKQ
UniProt Q96SW2, whole entry, looked up: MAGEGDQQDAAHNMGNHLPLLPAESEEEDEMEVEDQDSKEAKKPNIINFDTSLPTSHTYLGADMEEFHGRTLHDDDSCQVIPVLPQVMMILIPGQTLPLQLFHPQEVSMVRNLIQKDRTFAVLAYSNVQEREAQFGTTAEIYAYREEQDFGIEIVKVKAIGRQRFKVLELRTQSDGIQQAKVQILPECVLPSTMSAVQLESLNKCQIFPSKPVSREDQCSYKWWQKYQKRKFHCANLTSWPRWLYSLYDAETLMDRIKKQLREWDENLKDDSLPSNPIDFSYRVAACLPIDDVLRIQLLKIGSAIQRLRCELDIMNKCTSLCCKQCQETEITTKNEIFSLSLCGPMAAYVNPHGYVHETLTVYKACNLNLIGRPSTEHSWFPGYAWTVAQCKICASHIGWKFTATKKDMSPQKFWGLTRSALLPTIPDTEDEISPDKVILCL
UniProt Q8VIJ5, whole entry: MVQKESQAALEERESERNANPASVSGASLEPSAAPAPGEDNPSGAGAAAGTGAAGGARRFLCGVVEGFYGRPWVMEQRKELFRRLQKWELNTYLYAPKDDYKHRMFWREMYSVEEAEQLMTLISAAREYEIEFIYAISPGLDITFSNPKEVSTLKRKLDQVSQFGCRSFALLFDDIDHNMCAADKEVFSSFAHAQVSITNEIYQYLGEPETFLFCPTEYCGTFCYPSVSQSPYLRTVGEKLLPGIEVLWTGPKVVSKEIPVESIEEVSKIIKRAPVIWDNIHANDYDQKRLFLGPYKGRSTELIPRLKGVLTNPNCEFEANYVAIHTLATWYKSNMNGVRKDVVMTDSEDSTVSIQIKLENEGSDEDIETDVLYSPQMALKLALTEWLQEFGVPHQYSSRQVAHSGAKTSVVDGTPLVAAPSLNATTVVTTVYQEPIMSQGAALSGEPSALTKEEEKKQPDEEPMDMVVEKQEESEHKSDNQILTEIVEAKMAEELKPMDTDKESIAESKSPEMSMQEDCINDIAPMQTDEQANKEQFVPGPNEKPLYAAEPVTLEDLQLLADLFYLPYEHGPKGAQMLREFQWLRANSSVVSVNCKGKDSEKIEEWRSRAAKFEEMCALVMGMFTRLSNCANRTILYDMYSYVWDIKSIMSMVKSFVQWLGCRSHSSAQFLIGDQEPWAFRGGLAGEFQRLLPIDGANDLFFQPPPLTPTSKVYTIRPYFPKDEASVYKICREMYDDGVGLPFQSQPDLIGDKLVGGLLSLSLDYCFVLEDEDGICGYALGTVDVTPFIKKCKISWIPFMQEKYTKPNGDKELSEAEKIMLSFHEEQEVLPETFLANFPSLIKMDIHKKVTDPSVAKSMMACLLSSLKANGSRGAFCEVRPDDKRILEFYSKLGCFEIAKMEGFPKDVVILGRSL
UniProt Q9GZT9, whole entry: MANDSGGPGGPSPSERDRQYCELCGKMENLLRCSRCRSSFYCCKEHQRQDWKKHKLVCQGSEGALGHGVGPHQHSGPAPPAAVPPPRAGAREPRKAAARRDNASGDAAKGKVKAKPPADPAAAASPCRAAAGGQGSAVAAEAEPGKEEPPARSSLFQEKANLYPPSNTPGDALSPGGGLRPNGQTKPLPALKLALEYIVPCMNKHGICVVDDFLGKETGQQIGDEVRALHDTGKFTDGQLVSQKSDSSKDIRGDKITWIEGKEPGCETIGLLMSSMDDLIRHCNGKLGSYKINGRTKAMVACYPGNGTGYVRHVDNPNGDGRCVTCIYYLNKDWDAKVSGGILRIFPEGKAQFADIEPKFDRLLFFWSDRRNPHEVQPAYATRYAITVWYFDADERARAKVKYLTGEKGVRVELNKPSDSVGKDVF

| SMILES | target or system | assay | system | setting | scale | measurement | result |
| --- | --- | --- | --- | --- | --- | --- | --- |
| CCOC(=O)/C=C/CNCCCCCN1c2ccccc2CCc2ccc(Cl)cc21 | E3 ubiquitin-protein ligase NEDD4 | inhibitor, Ub-TR-FRET |  | 3.704 µM, 1 h preincubation, HECT domain, together with: ATP 2 mM | higher = more ubiquitination | ubiquitination TR-FRET signal AUC | 61700 a.u. and 63600 a.u. and 44600 a.u. and 60700 a.u. and 35500 a.u. and 47500 a.u. |
| O=C(O)CC[C@H](NC(=O)c1cc(C(=O)O)cc([C@H]2CCN[C@@H]2C(=O)O)c1)C(=O)O | Grik2 (Rattus norvegicus, UniProt P42260) | radioligand binding | Sf9 membranes | 10 µM, homomeric receptor, together with: [3H]kainate |  | specific binding | 100 ± 14% |
| NC(=O)c1cn(-c2ccc(F)cc2)c2ccc(OCc3cccnc3)cc2c1=O | Grm2 | calcium mobilization, negative allosteric modulator |  | 30 µM, together with: glutamate 100 µM | reference: glutamate maximum | response | 1.63 ± 0.33% |
| CC(=O)N1CCC[C@H]1C(=O)N[C@@H](CCC(N)=O)C(=O)N[C@@H](CC(C)C)C(=O)N1CCC[C@H]1C(=O)N[C@@H](Cc1ccccc1)C(N)=O | TGM2 (Homo sapiens, UniProt P21980) | enzyme activity, activator, GLDH-coupled deamidation |  | competitive model, together with: Ca2+ |  | apparent Ka | ~1 mM |
| Cc1ccc(C(=O)Nc2ccccc2C(=O)O)cc1S(=O)(=O)Nc1ccc(Cl)cc1 | RPA1 N-terminal domain | binding, fluorescence polarisation competition |  | together with: FITC-ATRIP probe |  | ligand efficiency | 0.2 |
| CC(=O)N[C@@H](CC(C)C)C(=O)N[C@@H](CCCNC(=N)N)C(=O)N[C@@H](CO)C(=O)N[C@@H](CCCNC(=N)N)C(=O)Nc1ccc2c(C(F)(F)F)cc(=O)oc2c1 | MALT1 (Homo sapiens, UniProt Q9UDY8) | substrate, fluorogenic peptide hydrolysis |  | pH 7.5, enzyme 399 nM, citrate 0.9 M |  | kcat/Km | 2500 M⁻¹ s⁻¹ |
| O=C(NNC(=S)Nc1cccc(C(F)(F)F)c1)c1cccn1-c1ccc(F)cc1 | Activator of 90 kDa heat shock protein ATPase homolog 1, N-terminal domain (AHSA1, Homo sapiens, UniProt O95433) | binding | acetylated Aha1 N-terminal domain | concentration not given |  | fluorescence change | no effect |
| CC(=O)N[C@@H](CCC(N)=O)C(=O)N[C@H](C(=O)N[C@@H](C)C(=O)N[C@@H](CCCNC(=N)N)C(=O)N[C@@H](CCCCNC(=O)CCc1ccc(N=Nc2ccc(N(C)C)cc2)cc1)C(=O)N[C@@H](CO)C(=O)N[C@H](C(=O)NCC(=O)NCC(=O)NCCCNC(=S)Nc1ccc2c(c1)C(=O)OC21c2ccc(O)cc2Oc2cc(O)ccc21)[C@@H](C)O)[C@@H](C)O | SIRT2 (Homo sapiens, UniProt Q8IXJ6) | substrate, fluorescence kinetics |  | 37 °C, 24 nM enzyme, together with: 500 µM NAD+ |  | kcat | 0.0024 ± 8e-05 s⁻¹ |
| O=C(OC(C(F)(F)F)C(F)(F)F)N1Cc2ccc(OCC3CC3)cc2C1 | FAAH (Homo sapiens, UniProt O00519) | enzyme activity, inhibitor, fluorescence AAMCA substrate |  | 1 µM |  | activity | inactive |
| CN1CCN(c2ccc(-c3cccc(CN4CCN(CCNC(=O)CCCCCCCNc5cccc6c5C(=O)N(C5CCC(=O)NC5=O)C6=O)CC4)c3)cc2NC(=O)c2c[nH]c(=O)cc2C(F)(F)F)CC1 (stereo not shown) | WDR5 (Homo sapiens, UniProt P61964) | degrader, immunoblot, measured: WDR5 protein level | MV4;11 | 0.5 µM |  | onset time of degradation | ≤ 2 h |
| Nc1nc(NCCc2ccc(Cl)cc2)nn1S(=O)(=O)c1cccc([N+](=O)[O-])c1 | Lysophospholipase-like protein 1 | activator, gel-based ABPP FP-rhodamine |  |  | reference: DMSO | probe labelling | 2 fold |
| Cc1cc(NC(=O)c2cccc(NC(=O)C3=CC(C)(C)CCC3=O)c2)ccc1Nc1nccc(-c2cccnc2)n1 | MAPK8 | kinase activity, inhibitor |  | 133.3 µM, unit not given, together with: 10 mM GSH | reference: DMSO | remaining activity | 0.0673 |
| COc1cccc(Nc2ncnc3onc(-c4ccc(Cl)cc4)c23)c1 | CFTR (Homo sapiens, UniProt P13569, del508-508) |  | FRT expressing ΔF508-CFTR |  | reference: DMSO | iodide influx rate | 100 µM/s |
| CC(C)C[C@H](NC(=O)[C@@H]1CCCN1C(=O)[C@H](CCC(N)=O)NC(=O)c1ccccc1N)C(=O)N[C@@H](CCC(N)=O)C(=O)N[C@@H](CC(N)=O)C(=O)N[C@@H](CCCCN)C(=O)N[C@H](C(=O)N[C@@H](CCC(N)=O)C(=O)NCCNc1ccc([N+](=O)[O-])cc1[N+](=O)[O-])C(C)C | Mitochondrial intermediate peptidase (MIPEP, Homo sapiens, UniProt Q99797) | substrate, FRET peptide hydrolysis |  |  |  | kcat/Km | 21000 M⁻¹ s⁻¹ |
| CCOC(=O)COC(=O)[C@@H]1C(C=O)=Cc2cc3c(cc2[C@H]1c1cc(OC)c(OC)c(OC)c1)OCO3 | Leishmania infantum | iRFP fluorescence | mouse splenocytes infected, amastigote, iRFP, ex vivo splenic explant | 48 h |  | EC50 | 4.3 ± 0.1 µM |
| CC(C)(Cn1cc(CN[C@@H]2CCc3ccccc32)nn1)c1c[nH]c2ccccc12 | GLP1R (Homo sapiens, UniProt P43220) | cAMP accumulation, positive allosteric modulator, HTRF |  | 0.6 µM, crude reaction product, together with: GLP-1(9-36) at EC20 | reference: BETP | Emax | 98.4% |
| CC(=O)NCCCC[C@H](NC(=O)CNC(=O)[C@H](CCCNC(=N)N)NC(C)=O)C(=O)Nc1ccc2c(C)cc(=O)oc2c1 | HDAC6 (Homo sapiens, UniProt Q9UBN7) | deacetylation, substrate |  | 25 °C, together with: 10 to 50 nM enzyme |  | kcat | 0.4 ± 0.02 s⁻¹ |

| SMILES | target or system | assay | system | setting | scale | measurement | result |
| --- | --- | --- | --- | --- | --- | --- | --- |
| COC(=O)[C@@]1(C)C=C(C(=O)Nc2cccc(C(=O)NC34CC(Nc5nccc(-c6cccnc6)n5)(C3)C4)c2)C(=O)CC1 | MAPK8 | kinase activity, inhibitor |  | 0.0007527 µM, together with: 10 mM GSH |  | remaining activity | 1.01 fraction of control |
| CC(C)OC(=O)CCC(C(=O)/C=C/c1ccc(O)c(OC(F)(F)F)c1)C(=O)/C=C/c1ccc(O)c(OC(F)(F)F)c1 | APP (Homo sapiens, UniProt P05067) | SDS-PAGE western blot, measured: Aβ1-42 species 75-200 kDa |  | 30 µM, 24 h, 37 °C, together with: Aβ 10 µM | reference: DMSO control | Aβ band density | 2000 ± 450% |
| CCOC(=O)/C=C/CNCCCN1c2ccccc2CCc2ccc(Br)cc21 | E3 ubiquitin-protein ligase NEDD4 | inhibitor, Ub-TR-FRET |  | 0.1372 µM, 1 h preincubation, HECT domain, together with: ATP 2 mM | higher = more ubiquitination | ubiquitination TR-FRET signal AUC | 144000 a.u. and 141000 a.u. and 145000 a.u. |
| O=C(Nc1ccc(F)cc1)C12CC1/C(=N\O)c1ccccc1O2 (stereo not shown) | GRM4 | positive allosteric modulator, calcium mobilization | CHO expressing Gqi5 | 30 µM, together with: glutamate concentration-response | reference: glutamate alone, leftward shift | fold shift of glutamate EC50 | 4.1 ± 0.5 fold |
| COc1ccc2c(c1)S(=O)(=O)N(CCCCCc1ccccc1)C(=O)O2 | Patatin-like phospholipase domain-containing protein 4 (PNPLA4, Homo sapiens, UniProt P41247) | reversibility of inhibition, FP-rhodamine labelling after gel filtration |  | 25 µM, 8 h post-filtration |  | enzyme reactivation | < 10% |
| COc1ccc2[nH]cc(/C=C/c3ccncc3)c2c1 | Amyloid-beta precursor protein, Aβ1-40 (APP, Homo sapiens, UniProt P05067) | Aβ40 aggregation, thioflavin T fluorescence |  | 25 µM |  | inhibition | 61% |
| CCOC(=O)/C=C/CNCCCCN1c2ccccc2CCc2ccc(Cl)cc21 | E3 ubiquitin-protein ligase NEDD4 | inhibitor, Ub-TR-FRET |  | 33.33 µM, 1 h preincubation, HECT domain, together with: ATP 2 mM | higher = more ubiquitination | ubiquitination TR-FRET signal AUC | 9840 a.u. and 10500 a.u. and 9810 a.u. and 10100 a.u. and 18400 a.u. and 10800 a.u. |
| Nc1nc(SCc2ccc(Cl)cc2)nn1S(=O)(=O)c1ccc(-c2ccccc2)nc1 | Lysophospholipase-like protein 1 | activator, gel-based ABPP, FP-rhodamine | HEK293 overexpressing Lysophospholipase-like protein 1 | 10 µM |  | activation | 5% |
| CCCCCCCC(=O)OCC(COP(=O)(O)OC1C(O)C(OP(=O)(O)O)C(OP(=O)(O)O)C(OP(=O)(O)O)C1O)OC(=O)CCCCCCC (stereo not shown) | CNGA3/CNGB3 (Homo sapiens, UniProt Q16281+Q9NQW8) | increase in cGMP K1/2, modulator, inside-out patch clamp |  | CNGA3/CNGB3 heteromer |  | Hill coefficient | 1.4 |
| Cc1ccc(C(=O)Nc2cccc(C)c2C(=O)O)cc1S(=O)(=O)Nc1ccc(Br)cc1 | RPA1 N-terminal domain | binding, fluorescence polarisation competition |  | together with: FITC-ATRIP probe |  | ligand efficiency | 0.19 |
| Cc1ncc(CCc2ccc3c(c2)c(=O)c(C(N)=O)cn3-c2ccc(F)cc2)cn1 | Grm2 | calcium mobilization, negative allosteric modulator |  | 30 µM, together with: glutamate 100 µM | reference: glutamate maximum | response | 1.52 ± 0.26% |
| COc1ccc(NC(=O)CN2CCCN(S(=O)(=O)c3sc(C)nc3C)CC2)c(OC)c1 | GRM4 | calcium mobilization, positive allosteric modulator | CHO cells with Gqi5 | together with: glutamate | reference: PHCCC maximal response | maximal response | 47.7 ± 2.1% |
| COc1cc([C@@H]2c3cc4c(cc3[C@@H](CC(C)(C)O)[C@H]3COC(=O)[C@H]23)OCO4)cc(OC)c1OC | Leishmania infantum | iRFP fluorescence | mouse splenocytes infected, amastigote, iRFP, ex vivo splenic explant | 48 h |  | EC50 | 53.7 ± 5.2 µM |
| Cc1ccc(NS(=O)(=O)c2cc(C(=O)Nc3ccccc3C(=O)O)ccc2C)cc1C | RPA1 N-terminal domain | binding, fluorescence polarisation competition |  | together with: FITC-ATRIP probe |  | ligand efficiency | 0.17 |
| O=C1CCC(N2Cc3cc(-c4nc5ccccn5c4NC45CC6CC(CC(C6)C4)C5)ccc3C2=O)C(=O)N1 (stereo not shown) | WEE1/CRBN (Homo sapiens, UniProt P30291+Q96SW2) | degrader, HiBiT | MOLM-14 | 5 h |  | Dmax | 88% |
| CC(=O)Nc1ncc(CN2CC[C@H](Oc3cccc(F)n3)C[C@@H]2C)s1 [isotope labelled] | Protein O-GlcNAcase (Rattus norvegicus, UniProt Q8VIJ5) | saturation binding | rat cortex homogenate | radiolabelled compound |  | Bmax | 45.9 nM and 46 nM |
| COc1ccc(CNc2c(C(=O)O)ccnc2C(=O)O)cc1 | Egl nine homolog 1 (EGLN1, Homo sapiens, UniProt Q9GZT9) | inhibitor, HTRF |  | 400 µM |  | remaining activity | 71% |
